Measurements of several laboratories.
Protocols differ between the studies behind these lines. ± gives the spread as reported.
Organism: Klebsiella pneumoniae

CC[C@H](C)[C@H](NC(=O)CNC(=O)[C@H](CC(=O)O)NC(=O)[C@H](CCCNC(=N)N)NC(=O)[C@@H](NC(=O)[C@H](CC(N)=O)NC(=O)[C@H](CCCNC(=N)N)NC(=O)CNC(=O)[C@@H](NC(=O)[C@H](CCCCN)NC(=O)[C@H](CCC(=O)O)NC(=O)[C@@H](NC(=O)[C@H](CCCCN)NC(=O)[C@H](CCCCN)NC(=O)[C@H](Cc1ccccc1)NC(=O)[C@@H](NC(=O)[C@H](CCCCN)NC(=O)[C@H](Cc1c[nH]c2ccccc12)NC(=O)[C@@H](N)CCCCN)[C@@H](C)CC)[C@@H](C)CC)C(C)C)C(C)C)C(=O)N[C@H](C(=O)N[C@@H](CCCCN)C(=O)N[C@@H](C)C(=O)NCC(=O)N1CCC[C@H]1C(=O)N[C@@H](C)C(=O)N[C@H](C(=O)N[C@@H](CCC(N)=O)C(=O)N[C@H](C(=O)N[C@H](C(=O)NCC(=O)N[C@@H](CCC(N)=O)C(=O)N[C@@H](C)C(=O)N[C@H](C(=O)N[C@@H](CO)C(=O)N[C@H](C(=O)N[C@@H](C)C(=O)N[C@@H](CCCCN)C(N)=O)[C@@H](C)CC)[C@@H](C)O)C(C)C)C(C)C)C(C)C)[C@@H](C)CC — MIC (broth microdilution; ATCC 700603; 20 h, 37 °C): 16.2 ± 1.9 µg/mL
CC[C@H](C)[C@H](NC(=O)[C@H](CCCNC(=N)N)NC(=O)[C@@H](N)CCCNC(=N)N)C(=O)N[C@@H](CCCNC(=N)N)C(=O)N1CCC[C@H]1C(=O)N[C@@H](CCCNC(=N)N)C(=O)N1CCC[C@H]1C(=O)N1CCC[C@H]1C(=O)N[C@@H](CCCNC(=N)N)C(=O)N[C@@H](CC(C)C)C(=O)N1CCC[C@H]1C(=O)N[C@@H](CCCNC(=N)N)C(=O)N1CCC[C@H]1C(=O)N[C@@H](CCCNC(=N)N)C(=O)O — MIC (broth microdilution; NTUH K2044, Mueller Hinton broth; 24 h, 37 °C): 2 µM
CC[C@H](C)[C@H](NC(=O)[C@H](CC(=O)O)NC(=O)[C@H](Cc1ccccc1)NC(=O)[C@H](CC(C)C)NC(=O)CN)C(=O)N[C@H](C(=O)N[C@@H](CCCCN)C(=O)N[C@@H](CCCCN)C(=O)N[C@H](C(=O)N[C@H](C(=O)NCC(=O)N[C@@H](C)C(=O)N[C@@H](CC(C)C)C(=O)N[C@@H](CCCCN)C(N)=O)C(C)C)C(C)C)C(C)C — MIC (ATCC 700603, CAMHB; 18 h, 37 °C): > 22 µM
CC[C@H](C)[C@H](NC(=O)[C@H](CCCNC(=N)N)NC(=O)[C@@H](N)CCCNC(=N)N)C(=O)N[C@@H](CCCNC(=N)N)C(=O)N1CCC[C@H]1C(=O)N[C@@H](CCCNC(=N)N)C(=O)N1CCC[C@H]1C(=O)N1CCC[C@H]1C(=O)N[C@@H](CCCNC(=N)N)C(=O)N[C@@H](CC(C)C)C(=O)N1CCC[C@H]1C(=O)N[C@@H](CCCNC(=N)N)C(=O)N1CCC[C@H]1C(=O)O — MIC (broth microdilution; NTUH K2044, Mueller Hinton broth; 24 h, 37 °C): > 77 µM
CC(C)C[C@H](NC(=O)[C@H](C)NC(=O)CNC(=O)[C@@H](NC(=O)[C@H](CC(C)C)NC(=O)[C@H](CCCCN)NC(=O)[C@H](CCCCN)NC(=O)[C@H](CC(C)C)NC(=O)[C@H](CC(C)C)NC(=O)[C@H](CCCCN)NC(=O)[C@H](CC(C)C)NC(=O)[C@H](CC(C)C)NC(=O)[C@@H](N)CCCCN)C(C)C)C(=O)NCC(N)=O — MIC (ATCC 700603, CAMHB; 18 h, 37 °C): 5 µM
CC[C@H](C)CCCCC(=O)N[C@@H](CCN)C(=O)N[C@H](C(=O)N[C@@H](CCN)C(=O)N[C@H]1CCNC(=O)[C@H]([C@@H](C)O)NC(=O)[C@H](CCN)NC(=O)[C@H](CCN)NC(=O)[C@H](CC(C)C)NC(=O)[C@@H](CC(C)C)NC(=O)[C@H](CCN)NC1=O)[C@@H](C)O — MIC (broth microdilution; ATCC 13883; 20 h, 37 °C): 0.02 to 0.11 µM
CCCCCCCCCC(=O)Oc1ccc(/C=C/C(=O)CC(=O)/C=C/c2ccc(OC(=O)CCCCCCCCC)c(OC)c2)cc1OC — MIC (microbial growth, broth dilution; 24 h): 0.369 µM
CC[C@H](C)[C@H](NC(=O)[C@@H]1CCCN1C(=O)[C@H](CCCNC(=N)N)NC(=O)[C@@H]1CCCN1C(=O)CNC(=O)[C@@H]1CCCN1C(=O)[C@H](CCCNC(=N)N)NC(=O)[C@@H]1CCCN1C(=O)[C@H](Cc1ccccc1)NC(=O)[C@@H]1CCCN1C(=O)[C@H](CC(C)C)NC(=O)[C@@H]1CCCN1C(=O)[C@H](CCCNC(=N)N)NC(=O)[C@@H]1CCCN1C(=O)[C@H](CCCNC(=N)N)NC(=O)[C@@H]1CCCN1C(=O)[C@H](CCCNC(=N)N)NC(=O)[C@@H]1CCCN1C(=O)[C@H](CC(C)C)NC(=O)[C@H](CCCNC(=N)N)NC(=O)[C@@H]1CCCN1C(=O)[C@@H]1CCCN1C(=O)[C@H](CCCNC(=N)N)NC(=O)[C@@H]1CCCN1)C(=O)N1CCC[C@H]1C(=O)N[C@@H](CCCNC(=N)N)C(=O)N1CCC[C@H]1C(=O)N[C@@H](CC(C)C)C(=O)N1CCC[C@H]1C(=O)N[C@@H](Cc1ccccc1)C(=O)N1CCC[C@H]1C(=O)O — MIC (broth microdilution; NTUH K2044, Mueller Hinton broth; 24 h, 37 °C): 4 µM
CSCC[C@H](NC(=O)[C@H](CCCCN)NC(=O)[C@H](CCCCN)NC(=O)[C@@H](NC(=O)[C@H](CCCCN)NC(=O)[C@H](CC(=O)O)NC(=O)[C@H](Cc1c[nH]c2ccccc12)NC(=O)[C@H](CC(C)C)NC(=O)[C@H](CCC(=O)O)NC(=O)[C@H](CCCCN)NC(=O)[C@@H](NC(=O)[C@@H](N)Cc1ccccc1)C(C)C)C(C)C)C(=O)NCC(=O)N[C@@H](CO)C(=O)N[C@@H](C)C(=O)N[C@@H](C)C(=O)N[C@@H](Cc1c[nH]c2ccccc12)C(=O)N[C@@H](CO)C(=O)N[C@@H](C)C(=O)N[C@@H](C)C(=O)N[C@@H](CCCCN)C(=O)NCC(=O)N[C@@H](C)C(=O)N[C@@H](Cc1ccccc1)C(=O)N[C@@H](C)C(=O)O — MIC (broth microdilution; ATCC 13883; 20 h, 37 °C): > 40 µM

Excerpt of the above:
CC[C@H](C)[C@H](NC(=O)[C@@H]1CCCN1C(=O)[C@H](CCCNC(=N)N)NC(=O)[C@@H]1CCCN1C(=O)CNC(=O)[C@@H]1CCCN1C(=O)[C@H](CCCNC(=N)N)NC(=O)[C@@H]1CCCN1C(=O)[C@H](Cc1ccccc1)NC(=O)[C@@H]1CCCN1C(=O)[C@H](CC(C)C)NC(=O)[C@@H]1CCCN1C(=O)[C@H](CCCNC(=N)N)NC(=O)[C@@H]1CCCN1C(=O)[C@H](CCCNC(=N)N)NC(=O)[C@@H]1CCCN1C(=O)[C@H](CCCNC(=N)N)NC(=O)[C@@H]1CCCN1C(=O)[C@H](CC(C)C)NC(=O)[C@H](CCCNC(=N)N)NC(=O)[C@@H]1CCCN1C(=O)[C@@H]1CCCN1C(=O)[C@H](CCCNC(=N)N)NC(=O)[C@@H]1CCCN1)C(=O)N1CCC[C@H]1C(=O)N[C@@H](CCCNC(=N)N)C(=O)N1CCC[C@H]1C(=O)N[C@@H](CC(C)C)C(=O)N1CCC[C@H]1C(=O)N[C@@H](Cc1ccccc1)C(=O)N1CCC[C@H]1C(=O)O — MIC (broth microdilution; NTUH K2044, Mueller Hinton broth; 24 h, 37 °C): 4 µM
